Experimental data collected from several papers.
Each line is one published result; not all experiments were run side by side. ± marks the error that the study gave.

CC(=O)OC[C@H]1O[C@@H]([S-])[C@H](OC(C)=O)[C@@H](OC(C)=O)[C@@H]1OC(C)=O.CCP(CC)CC.[Au+]
cytotoxicity (RPMI-8226; XTT; 0.1 µM, 3 days): not toxic

c1csc(CNc2cc[nH]n2)c1
cells with structural aberrations (human peripheral blood lymphocytes, female; 25 µg/mL, 20 h, without S9): 1%

N#Cc1ccc(Nc2nc(N)cc(Oc3ccc(-c4ccc(F)cc4)cc3)n2)cc1
CC50 (MT4 uninfected): 20.4 ± 7.53 µM

Cc1ccc(S(=O)(=O)Nn2c(N)c(-c3nc4ccccc4s3)c3[nH]nc(N)c3c2=O)cc1
maximum non-toxic concentration (Huh7.5; 72 h): 90 µg/mL

COc1c(O)cc2c(c1O)C(=O)c1c(cc(C)c(O)c1OC)C2=O
viability (HK-2 co-cultured with HepaRG; MTT; 133.33 µM, 24 h; reference: untreated control): 89.2 ± 12.5%

CSc1nc(NS(=O)(=O)c2ccc(C)cc2)nc(N)c1-c1nc2ccccc2s1
maximum non-toxic concentration (Huh7.5; cytotoxicity; 72 h): 100 µg/mL

COc1cc2c(c(O)c1OC)C(=O)c1c(cc(C)c(O[C@@H]3O[C@H](CO)[C@@H](O)[C@H](O)[C@H]3O)c1OC)C2=O
cell viability (HK-2 co-cultured with HepaRG; MTT; 66.67 µM, 48 h; reference: untreated control): 97.6 ± 4.78%

CCCCc1oc2ccccc2c1C(=O)c1cc(I)c(OCCN(CC)CC)c(I)c1
ALERT score (H9 human embryonic stem cell aggregates; qRT-PCR; 3D aggregates; 1 µM, 5 days, developmental toxicity model; direction not given): 0

Cc1noc(C)c1Cn1cc(N2C(=O)CN(Cc3cccc(O)c3)C2=O)cn1
aberrant cells without gaps (human blood lymphocytes; 494.3 µg/mL, 3 h): 1%

N#Cc1ccc(Nc2nc(N)cc(Oc3c(F)cc(-c4ccc(C#N)cc4)cc3F)n2)cc1
CC50 (MT4 uninfected): 117 µM

C/C(O)=C(\C#N)C(=O)Nc1ccc(C(F)(F)F)cc1
free drug concentration (SIRC; culture medium; 1 µM, 48 h): 260 nM

N#Cc1ccc(Nc2nc(N)cc(Oc3ccc(-c4ccc(C#N)c(F)c4)cc3F)n2)cc1
CC50 (MT4 uninfected): 241 ± 20.7 µM

CC(C)NCCCn1c(Sc2cc3c(cc2I)OCO3)nc2c(N)ncnc21
EC50 (MYBPC3-mutant iPSC cardiomyocytes; cell viability; 24 h): > 60 µM

COC(=O)c1c(C)ncn1CC(c1c[nH]c2ccccc12)c1c[nH]c2ccccc12
CC50 (human primary fibroblasts; viability, MTS; 24 h): > 20 µM

Cc1ccc(-c2nc(NS(=O)(=O)c3ccc(C)cc3)nc(N)c2-c2nc3ccccc3s2)cc1
maximum non-toxic concentration (Huh7.5; cytotoxicity; 72 h): 100 µg/mL

COc1c(O)c(C)cc2c1C(=O)c1c(cc(O)c(O)c1O)C2=O
viability (HK-2 co-cultured with HepaRG; MTT; 66.67 µM, 48 h; reference: untreated control): 83 ± 7.89%

Nc1nc(NS(=O)(=O)c2ccccc2)nc(-c2ccccc2)c1-c1nc2ccccc2s1
maximum non-toxic concentration (Huh7.5; cytotoxicity; 72 h): 90 µg/mL

CC1(C)C2CCC1(CS(=O)(=O)[O-])C(=O)C2.[Na+] (racemic)
cytotoxicity (THP-1; MTT; 50 µM): not toxic

CSc1c(-c2nc3ccccc3s2)c(N)n(NS(=O)(=O)c2ccccc2)c(=O)c1C#N
maximum non-toxic concentration (Huh7.5; 72 h): 100 µg/mL

COc1ccc(NC(=S)N/N=C/c2cccc3cc4ccccc4nc23)cc1
viable cells (HeLa; annexin V/PI; IC12.5, 48 h): 84.6 ± 0.45%

Cc1cc(O)c2c(c1)C(=O)c1cccc(O)c1C2=O
viability (HK-2 co-cultured with HepaRG; MTT; 16.67 µM, 24 h; reference: untreated control): 92.4 ± 5.77%

N#Cc1ccc(Nc2nc(N)cc(Oc3ccc(-c4ccc(C#N)cc4)c(C#N)c3)n2)cc1
CC50 (MT4 uninfected): > 291 µM

CC(=O)c1c(C)cc2cc(O)cc(O[C@@H]3O[C@H](CO)[C@@H](O)[C@H](O)[C@H]3O)c2c1O
cell viability (HK-2 co-cultured with HepaRG; MTT; 33.33 µM, 24 h; reference: untreated control): 118 ± 13.2%

COc1cccc(-c2n[nH]c(SCc3ccccn3)n2)c1OC
cytostasis (CHO-WBL; micronucleus test; 50 µg/mL, 3 h, added: rat liver S9): -1%

COc1c(O)c(C)cc2c1C(=O)c1c(ccc(O)c1O)C2=O
viability (HK-2 co-cultured with HepaRG; MTT; 33.33 µM, 48 h; reference: untreated control): 84.8 ± 5.94%

Cc1ccc(S(=O)(=O)Nc2nc(N)c(-c3nc4ccccc4s3)c(-c3ccc(F)cc3)n2)cc1
maximum non-toxic concentration (Huh7.5; cytotoxicity; 72 h): 100 µg/mL

CCCCc1oc2ccc(NS(C)(=O)=O)cc2c1C(=O)c1ccc(OCCCN(CCCC)CCCC)cc1
ALERT score (H9 human embryonic stem cell aggregates; qRT-PCR; 3D aggregates; 0.5 µM, 5 days, developmental toxicity model; direction not given): 11

CC1=CC(=O)c2ccccc2C1=O
IC50 (MRC-5; cytotoxicity, MTT; 48 h, 10% FBS): 22.4 ± 0.33 µM

COc1c(O)c(C)cc2c1C(=O)c1c(O)cccc1C2=O
viability (HK-2 co-cultured with HepaRG; MTT; 266.67 µM, 48 h; reference: untreated control): 59.7 ± 6.33%

CN1C(=O)C(=O)c2cc3c(c4c2c1cc1ccccc14)OCO3
inhibition (MRC-5; cytotoxicity, MTT; 50 µg/mL, 48 h): < 50%

O=C(O)c1cc(O)c2c(c1)C(=O)c1cccc(O[C@@H]3O[C@H](CO)[C@@H](O)[C@H](O)[C@H]3O)c1C2=O
cell viability (HK-2 co-cultured with HepaRG; MTT; 66.67 µM, 24 h; reference: untreated control): 99.3 ± 11.4%

Cc1ccnc2c1NC(=O)c1cccnc1N2C1CC1
CC50 (MT4 uninfected): > 15 µM

CCSC(SCC)=C(C#N)c1nc2ccccc2s1
maximum non-toxic concentration (Huh7.5; 72 h): 100 µg/mL

N#Cc1ccc(Nc2nc(N)cc(Oc3ccc(-c4ccc(C#N)c(C#N)c4)cc3)n2)cc1
CC50 (MT4 uninfected): 218 ± 19.4 µM

COc1ccc(-c2nc(NS(=O)(=O)c3ccc(C)cc3)nc(N)c2-c2nc3ccccc3s2)cc1
maximum non-toxic concentration (Huh7.5; cytotoxicity; 72 h): 90 µg/mL

Cc1cc(C(=O)NC(C)(C)COc2cccc3c2C(N)=NS(=O)(=O)N3)cc(C)n1
cytotoxicity (human peripheral blood lymphocytes; CBPI, concurrent micronucleus test; 1500 µg/mL, 4 h; reference: vehicle control): 6%

C[C@@H]1[C@H](O)[C@@H](C)/C=C/C=C/C=C/C=C/C=C/C=C/C=C/[C@H](O[C@@H]2O[C@H](C)[C@@H](O)[C@H](N)[C@@H]2O)C[C@@H]2O[C@](O)(C[C@@H](O)C[C@@H](O)[C@H](O)CC[C@@H](O)C[C@@H](O)CC(=O)O[C@H]1C)C[C@H](O)[C@H]2C(=O)O
CC50 (human primary fibroblasts; viability, MTS; 24 h): 5.03 µM

O=C(Nc1cc(F)cc2cccnc12)c1cnc(NCCN2CCS(=O)(=O)CC2)cn1
cytotoxicity (MIA PaCa-2; MTT; concentration not given): not toxic

CC(=O)CNc1nc(NS(=O)(=O)c2ccccc2)ncc1-c1nc2ccccc2s1
maximum non-toxic concentration (Huh7.5; cytotoxicity; 72 h): 80 µg/mL

CCSc1c(-c2nc3ccccc3s2)c(N)n(NS(=O)(=O)c2ccc(C)cc2)c(=O)c1C#N
maximum non-toxic concentration (Huh7.5; 72 h): 120 µg/mL

N#Cc1ccc(Nc2nc(N)cc(Oc3ccc(-c4ccc(C#N)cc4)cc3C(F)(F)F)n2)cc1
CC50 (MT4 uninfected): 66.4 µM

Cc1ccc(S(=O)(=O)Nc2nc(N)c(-c3nc4ccccc4s3)c(-c3ccccc3)n2)cc1
maximum non-toxic concentration (Huh7.5; cytotoxicity; 72 h): 90 µg/mL

N#Cc1ccc(Nc2nc(N)cc(Oc3ccc(-c4ccc(C#N)cc4)c(F)c3)n2)cc1
CC50 (MT4 uninfected): 10.8 µM

COC(=O)c1c(C)ncn1CC(c1c[nH]c2ccc(C)cc12)c1c[nH]c2ccc(C)cc12
CC50 (human primary fibroblasts; viability, MTS; 24 h): > 20 µM

CCCC(CCC)NC(=O)c1ccc2c(c1)OCO2
cells with aberrations (CHO-WBL; 5 mg/mL, 3 h, with rat liver S9): 0.5%

A few entries again:
COc1ccc(NC(=S)N/N=C/c2cccc3cc4ccccc4nc23)cc1
viable cells (HeLa; annexin V/PI; IC12.5, 48 h): 84.6 ± 0.45%

Cc1cc(O)c2c(c1)C(=O)c1cccc(O)c1C2=O
viability (HK-2 co-cultured with HepaRG; MTT; 16.67 µM, 24 h; reference: untreated control): 92.4 ± 5.77%

N#Cc1ccc(Nc2nc(N)cc(Oc3ccc(-c4ccc(C#N)cc4)c(C#N)c3)n2)cc1
CC50 (MT4 uninfected): > 291 µM

CC(=O)c1c(C)cc2cc(O)cc(O[C@@H]3O[C@H](CO)[C@@H](O)[C@H](O)[C@H]3O)c2c1O
cell viability (HK-2 co-cultured with HepaRG; MTT; 33.33 µM, 24 h; reference: untreated control): 118 ± 13.2%

COc1cccc(-c2n[nH]c(SCc3ccccn3)n2)c1OC
cytostasis (CHO-WBL; micronucleus test; 50 µg/mL, 3 h, added: rat liver S9): -1%

COc1c(O)c(C)cc2c1C(=O)c1c(ccc(O)c1O)C2=O
viability (HK-2 co-cultured with HepaRG; MTT; 33.33 µM, 48 h; reference: untreated control): 84.8 ± 5.94%
